Results from different studies.
Parts stem from different laboratories: compare values within a part only. Values joined by “and” are separate records of one study, mostly repeats; a detail may differ.
UniProt Q96Q40, sequence (whole entry, looked up): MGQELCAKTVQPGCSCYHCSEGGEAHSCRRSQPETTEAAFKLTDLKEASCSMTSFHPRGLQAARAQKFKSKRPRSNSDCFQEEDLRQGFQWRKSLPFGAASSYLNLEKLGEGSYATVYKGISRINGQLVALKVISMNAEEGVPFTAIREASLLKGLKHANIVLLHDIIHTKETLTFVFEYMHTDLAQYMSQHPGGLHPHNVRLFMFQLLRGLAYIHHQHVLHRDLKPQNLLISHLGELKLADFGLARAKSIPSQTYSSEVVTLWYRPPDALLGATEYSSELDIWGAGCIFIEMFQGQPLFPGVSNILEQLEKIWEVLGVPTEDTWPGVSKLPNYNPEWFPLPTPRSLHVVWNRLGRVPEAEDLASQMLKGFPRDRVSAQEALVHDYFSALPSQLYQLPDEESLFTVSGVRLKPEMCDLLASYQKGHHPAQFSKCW
UniProt Q13164, sequence (whole entry, looked up): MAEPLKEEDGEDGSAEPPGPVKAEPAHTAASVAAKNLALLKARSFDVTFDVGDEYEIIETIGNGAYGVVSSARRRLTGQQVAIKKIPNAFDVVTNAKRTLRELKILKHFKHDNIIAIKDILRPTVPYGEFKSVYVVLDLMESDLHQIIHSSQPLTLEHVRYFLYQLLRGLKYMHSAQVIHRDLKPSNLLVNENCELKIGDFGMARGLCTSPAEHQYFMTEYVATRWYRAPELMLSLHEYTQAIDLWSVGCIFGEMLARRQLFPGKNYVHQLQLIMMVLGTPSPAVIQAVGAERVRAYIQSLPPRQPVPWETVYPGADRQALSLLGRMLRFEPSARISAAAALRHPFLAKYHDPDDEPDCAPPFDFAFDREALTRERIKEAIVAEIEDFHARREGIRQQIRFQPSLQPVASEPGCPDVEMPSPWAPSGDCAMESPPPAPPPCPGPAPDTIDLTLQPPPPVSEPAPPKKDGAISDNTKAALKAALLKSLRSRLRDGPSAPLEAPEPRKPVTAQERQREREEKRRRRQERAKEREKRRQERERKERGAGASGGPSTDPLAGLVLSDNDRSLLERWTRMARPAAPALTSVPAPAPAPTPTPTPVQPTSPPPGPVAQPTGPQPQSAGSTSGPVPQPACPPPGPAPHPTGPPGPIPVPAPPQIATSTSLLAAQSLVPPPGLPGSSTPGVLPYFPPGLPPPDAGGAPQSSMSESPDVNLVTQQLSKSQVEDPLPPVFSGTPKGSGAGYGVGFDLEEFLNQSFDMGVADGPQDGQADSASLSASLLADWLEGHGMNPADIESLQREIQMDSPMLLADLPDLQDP
UniProt O94921, sequence (whole entry, looked up): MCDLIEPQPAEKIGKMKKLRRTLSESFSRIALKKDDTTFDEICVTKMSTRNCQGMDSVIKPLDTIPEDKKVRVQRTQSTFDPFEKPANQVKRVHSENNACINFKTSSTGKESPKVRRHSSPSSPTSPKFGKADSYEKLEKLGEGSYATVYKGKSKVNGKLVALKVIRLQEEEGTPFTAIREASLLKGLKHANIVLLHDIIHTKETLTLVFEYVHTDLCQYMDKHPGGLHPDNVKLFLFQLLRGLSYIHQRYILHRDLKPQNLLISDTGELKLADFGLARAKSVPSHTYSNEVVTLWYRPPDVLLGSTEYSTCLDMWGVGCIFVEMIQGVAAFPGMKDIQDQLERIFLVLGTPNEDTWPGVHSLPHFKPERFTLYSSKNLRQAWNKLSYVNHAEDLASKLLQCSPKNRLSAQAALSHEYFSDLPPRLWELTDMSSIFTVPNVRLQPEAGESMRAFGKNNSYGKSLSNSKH
UniProt Q14164, sequence (whole entry, looked up): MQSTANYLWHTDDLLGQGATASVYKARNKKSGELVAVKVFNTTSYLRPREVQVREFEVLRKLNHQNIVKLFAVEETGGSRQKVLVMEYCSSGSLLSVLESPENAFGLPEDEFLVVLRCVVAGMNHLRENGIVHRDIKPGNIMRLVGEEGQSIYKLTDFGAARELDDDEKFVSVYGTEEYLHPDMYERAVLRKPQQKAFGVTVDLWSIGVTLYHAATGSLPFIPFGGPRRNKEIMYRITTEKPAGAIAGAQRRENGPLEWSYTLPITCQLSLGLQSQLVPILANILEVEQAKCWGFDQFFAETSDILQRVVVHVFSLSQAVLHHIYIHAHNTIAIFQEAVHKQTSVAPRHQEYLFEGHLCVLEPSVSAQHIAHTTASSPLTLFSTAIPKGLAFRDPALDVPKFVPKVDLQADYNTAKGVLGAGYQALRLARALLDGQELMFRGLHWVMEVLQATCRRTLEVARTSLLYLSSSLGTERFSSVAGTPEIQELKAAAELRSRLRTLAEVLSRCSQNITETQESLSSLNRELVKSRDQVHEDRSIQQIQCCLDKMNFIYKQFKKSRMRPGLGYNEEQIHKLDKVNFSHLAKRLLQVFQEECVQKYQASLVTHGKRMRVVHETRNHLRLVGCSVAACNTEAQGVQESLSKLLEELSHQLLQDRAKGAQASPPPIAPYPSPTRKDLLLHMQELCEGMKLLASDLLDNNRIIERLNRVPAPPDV
UniProt Q13237, sequence (whole entry, looked up): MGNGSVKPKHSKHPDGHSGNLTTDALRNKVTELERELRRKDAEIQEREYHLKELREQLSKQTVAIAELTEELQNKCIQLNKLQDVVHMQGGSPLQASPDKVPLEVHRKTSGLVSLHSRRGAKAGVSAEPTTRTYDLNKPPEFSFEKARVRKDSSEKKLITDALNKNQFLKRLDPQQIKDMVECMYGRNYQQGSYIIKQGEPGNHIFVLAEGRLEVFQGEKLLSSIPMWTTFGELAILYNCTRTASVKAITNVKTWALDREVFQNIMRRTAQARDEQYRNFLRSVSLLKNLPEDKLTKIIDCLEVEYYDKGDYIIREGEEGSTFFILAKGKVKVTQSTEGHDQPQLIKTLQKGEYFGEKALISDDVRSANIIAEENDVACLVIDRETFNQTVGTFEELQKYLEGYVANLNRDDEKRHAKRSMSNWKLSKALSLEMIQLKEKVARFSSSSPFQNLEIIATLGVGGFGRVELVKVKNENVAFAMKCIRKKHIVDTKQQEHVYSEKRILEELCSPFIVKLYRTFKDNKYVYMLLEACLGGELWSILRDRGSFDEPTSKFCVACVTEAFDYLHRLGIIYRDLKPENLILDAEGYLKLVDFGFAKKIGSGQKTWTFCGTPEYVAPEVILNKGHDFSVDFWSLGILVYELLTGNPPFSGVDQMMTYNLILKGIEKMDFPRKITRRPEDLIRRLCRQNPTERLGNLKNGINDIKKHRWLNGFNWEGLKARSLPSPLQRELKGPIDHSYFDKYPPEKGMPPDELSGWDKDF
UniProt P17948, sequence (whole entry, looked up): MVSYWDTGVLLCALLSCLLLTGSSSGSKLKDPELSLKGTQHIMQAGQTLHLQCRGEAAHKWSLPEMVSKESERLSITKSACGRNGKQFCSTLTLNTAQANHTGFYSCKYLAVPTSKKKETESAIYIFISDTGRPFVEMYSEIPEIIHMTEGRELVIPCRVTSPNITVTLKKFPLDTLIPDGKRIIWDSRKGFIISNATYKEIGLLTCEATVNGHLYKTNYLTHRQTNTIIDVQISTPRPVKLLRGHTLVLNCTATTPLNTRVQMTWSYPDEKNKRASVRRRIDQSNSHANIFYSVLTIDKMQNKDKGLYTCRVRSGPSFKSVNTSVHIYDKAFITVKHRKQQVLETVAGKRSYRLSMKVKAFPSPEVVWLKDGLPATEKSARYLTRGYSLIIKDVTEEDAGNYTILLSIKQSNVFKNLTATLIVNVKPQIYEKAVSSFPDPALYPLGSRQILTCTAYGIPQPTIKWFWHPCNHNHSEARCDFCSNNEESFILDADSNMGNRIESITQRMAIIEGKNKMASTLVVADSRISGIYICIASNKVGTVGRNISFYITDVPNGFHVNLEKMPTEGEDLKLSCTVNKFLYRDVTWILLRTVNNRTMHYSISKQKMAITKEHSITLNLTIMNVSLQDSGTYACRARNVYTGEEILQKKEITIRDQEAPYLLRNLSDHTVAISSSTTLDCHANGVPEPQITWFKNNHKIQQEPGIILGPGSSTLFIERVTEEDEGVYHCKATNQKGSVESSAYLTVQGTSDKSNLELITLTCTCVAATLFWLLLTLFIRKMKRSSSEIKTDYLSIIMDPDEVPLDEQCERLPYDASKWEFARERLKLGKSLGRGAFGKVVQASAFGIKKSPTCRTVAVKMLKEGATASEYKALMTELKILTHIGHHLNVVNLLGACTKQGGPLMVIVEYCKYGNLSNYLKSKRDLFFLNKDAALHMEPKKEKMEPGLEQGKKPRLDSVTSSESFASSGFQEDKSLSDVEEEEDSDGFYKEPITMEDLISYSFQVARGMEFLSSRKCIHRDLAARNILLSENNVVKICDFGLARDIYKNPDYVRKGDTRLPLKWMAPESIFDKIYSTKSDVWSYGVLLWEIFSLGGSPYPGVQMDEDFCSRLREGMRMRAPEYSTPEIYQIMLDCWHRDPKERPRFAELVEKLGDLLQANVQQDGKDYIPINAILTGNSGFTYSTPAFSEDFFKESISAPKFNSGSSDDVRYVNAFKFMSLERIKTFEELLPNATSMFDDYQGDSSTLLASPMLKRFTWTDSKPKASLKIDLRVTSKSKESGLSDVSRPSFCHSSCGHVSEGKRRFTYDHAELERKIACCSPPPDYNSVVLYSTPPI
UniProt Q14012, sequence (whole entry, looked up): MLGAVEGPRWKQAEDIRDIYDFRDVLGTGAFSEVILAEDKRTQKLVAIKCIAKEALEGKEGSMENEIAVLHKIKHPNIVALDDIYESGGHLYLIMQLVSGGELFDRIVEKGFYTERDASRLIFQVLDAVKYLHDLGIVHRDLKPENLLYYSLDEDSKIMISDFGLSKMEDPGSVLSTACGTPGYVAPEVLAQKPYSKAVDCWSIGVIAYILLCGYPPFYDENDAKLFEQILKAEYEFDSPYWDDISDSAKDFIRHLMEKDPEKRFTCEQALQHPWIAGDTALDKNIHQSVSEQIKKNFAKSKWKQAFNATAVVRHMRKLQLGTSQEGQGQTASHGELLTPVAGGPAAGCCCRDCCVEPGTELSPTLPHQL

Set 1
SMILES: Cc1ncsc1-c1ccc(C2(NC(=O)C3CC(O)CN3C(=O)C(NC(=O)c3ccc(COc4c(-c5c(C)c(F)cc6[nH]ncc56)c(C5CC5)cc5c(N6CC7CC6CN7)nc(OC6CCOCC6)nc45)cc3)C(C)(C)C)CC2)cc1 (stereo not drawn)
Cell line: AsPC-1
Technique: in-cell ELISA
concentration	setting	phospho-ERK1/2 level
3 µM	per-experiment values	19.8% and 18.6% and 10.4%
1 µM	individual replicates	50.9% and 55.4% and 39.1% and 40.9% and 21.7% and 36.4%
10 nM	per-experiment values	93.2% and 103% and 101%
30 nM	individual replicates	99% and 105% and 93.2% and 94.1% and 104% and 93.4%
100 nM	individual replicates	84.1% and 90.2% and 87% and 85.9% and 99.9%
1 nM	per-experiment values	88.1% and 103% and 97.4%

Set 2
Structure (SMILES): CC[C@@]1(c2cccc(-c3c(F)cncc3OC)c2)C2=C(Nc3n[nH]cc31)[C@H](F)C(C)(C)CC2=O (single isomer, unassigned)
Concentration: 1 µM
target	effect on	technique	baseline	remaining binding [%]
Serine/threonine-protein kinase MAK (MAK, Homo sapiens, UniProt P20794)	kinase binding	KINOMEscan	DMSO control	87
Serine/threonine-protein kinase VRK2 (VRK2, Homo sapiens, UniProt Q86Y07)	kinase binding	KINOMEscan	DMSO control	64
Cyclin-dependent kinase 15 (CDK15, Homo sapiens, UniProt Q96Q40)	binding	competition with immobilised ligand		96
Cyclin-dependent kinase 14 (CDK14, Homo sapiens, UniProt O94921)	kinase binding	KINOMEscan	DMSO control	100
Mitogen-activated protein kinase 7 (MAPK7, Homo sapiens, UniProt Q13164)	binding	competition with immobilised ligand		100
Ribosomal protein S6 kinase alpha-6, N-terminal kinase domain (RPS6KA6, Homo sapiens, UniProt Q9UK32)	binding	competition with immobilised ligand		84
Macrophage colony-stimulating factor 1 receptor, autoinhibited (CSF1R, Homo sapiens, UniProt P07333)	kinase binding	KINOMEscan	DMSO control	73
Atypical kinase COQ8B, mitochondrial (COQ8B, Homo sapiens, UniProt Q96D53)	binding	competition with immobilised ligand		100
Calcium/calmodulin-dependent protein kinase type 1 (CAMK1, Homo sapiens, UniProt Q14012)	binding	competition with immobilised ligand		54
Vascular endothelial growth factor receptor 1 (FLT1, Homo sapiens, UniProt P17948)	kinase binding	KINOMEscan	DMSO control	88
Serine/threonine-protein kinase BRSK2 (BRSK2, Homo sapiens, UniProt Q8IWQ3)	kinase binding	KINOMEscan	DMSO control	92
cGMP-dependent protein kinase 2 (PRKG2, Homo sapiens, UniProt Q13237)	binding	competition with immobilised ligand		85
Death-associated protein kinase 1 (DAPK1, Homo sapiens, UniProt P53355)	binding	competition with immobilised ligand		100
Ribosomal protein S6 kinase beta-1 (RPS6KB1, Homo sapiens, UniProt P23443)	binding	competition with immobilised ligand		83
Ephrin type-A receptor 6 (EPHA6, Homo sapiens, UniProt Q9UF33)	binding	competition with immobilised ligand		94
cAMP-dependent protein kinase catalytic subunit PRKX (PRKX, Homo sapiens, UniProt P51817)	binding	competition with immobilised ligand		96
Mitogen-activated protein kinase kinase kinase 11 (MAP3K11, Homo sapiens, UniProt Q16584)	binding	competition with immobilised ligand		92
Inhibitor of nuclear factor kappa-B kinase subunit epsilon (IKBKE, Homo sapiens, UniProt Q14164)	kinase binding	KINOMEscan	DMSO control	93

Set 3
SMILES: CCN1/C(=C/C=C2\CCCC(/C=C/C3=[N+](CC)c4ccccc4C3(C)C)=C2NCCCCCCCCN2CCC(Nc3nc4ccccc4n3Cc3ccc(F)cc3)CC2)C(C)(C)c2ccccc21
Cell line: U-87 MG
Concentration: concentration not given
Baseline: DMSO
measured	log2 fold change
TSPYL2 mRNA	1.75
OGT mRNA	1.2
HMGB2 mRNA	-1.35
FOXP2 mRNA	1.52
KCNN3 mRNA	1.6
RNASE1 mRNA	-2.93
ZNF367 mRNA	-2.13
CCNL1 mRNA	0.914
MUC1 mRNA	-1.92
MEF2C mRNA	1.01
CTHRC1 mRNA	-2.14
POC1A mRNA	-1.07
EFCAB13 mRNA	0.955
DEPDC1 mRNA	-1.31
PRRT3 mRNA	-1.06
SLC3A2 mRNA	1.44

Set 4
SMILES: C#Cc1cccc2cc(O)cc(-c3ncc4c(N5CC6CCC(C5)N6)nc(OCC56CCCN5CCC6)nc4c3F)c12
Baseline: vehicle
cell line	effect on	technique	concentration	viability
HEK293		CellTiter-Glo	3.33 µM	89.4% and 90.7% and 93.4%
HEK293		CellTiter-Glo	123 nM	98.4% and 97.8% and 101%
NCI-H647	cell proliferation	CellTiter-Glo luminescence	0.04576 µM	96.1% and 97.4% and 96.2%
HEK293		CellTiter-Glo luminescence	0.04576 µM	97.8% and 96.8% and 95.6%
HEK293		CellTiter-Glo	508 pM	98.7% and 96.3% and 94.2%
HEK293		CellTiter-Glo	13.7 nM	98% and 102% and 99.5%
NCI-H647	cell proliferation	CellTiter-Glo luminescence	0.5229 µM	91.8% and 91.3% and 93.3%
HEK293		CellTiter-Glo	1.11 µM	97.8% and 95.6% and 96.8%

Some of these lines once more (set 3):
measured	log2 fold change
RNASE1 mRNA	-2.93
ZNF367 mRNA	-2.13
CCNL1 mRNA	0.914
MUC1 mRNA	-1.92
MEF2C mRNA	1.01
